{"data": "Experimental data pooled from the literature", "ALB": "Albumin (ALB, Bos taurus, UniProt P02769)", "note": "Compare with care: the assays were run in different laboratories. Numbers after ± are the reported error."}
{"Compound": "CNc1ccccc1C(=O)O[C@H]1C[C@H](n2cnc3c(N)ncnc32)O[C@@H]1COP(=O)(O)OP(=O)(O)O", "target": "Unconventional myosin-Va (Gallus gallus, UniProt Q02440, D297C/G292C/I296C/S293C/V295G)", "test": "stopped-flow FRET", "setting": "25 °C, together with: MgCl2 2 mM", "endpoint": "dissociation rate constant", "result": "12.6 ± 0.1 s⁻¹"}
{"Compound": "CC1=C(/C=C/C(C)=C/C=C/C(C)=C/C=C/C=C(C)/C=C/C=C(\\C)C=O)C(C)(C)CCC1", "target": "Prosaposin, Saposin B (PSAP, Homo sapiens, UniProt P07602)", "test": "binding, tyrosine fluorescence quenching", "setting": "pH 5.5, 25 °C, 40 µM saposin B, 50 mM phosphate", "endpoint": "log association constant", "result": 4.62}
{"Compound": "C=C1C(=O)OC2C1CCC(C)=C1C(OC(=O)CCCCCCCCCCCNC(=O)CCCCC3SCC4NC(=O)NC43)CC(C)(O)C12 (stereo not drawn)", "target": "EXOC1 (Homo sapiens, UniProt Q9NV70)", "test": "competitive pull-down LC-MS/MS", "test system": "M9-ENL1 cell lysate", "setting": "together with: probe 10 µM", "how to read": "relative to: MCL-treated control", "endpoint": "enrichment ratio", "result": "5.1 fold"}
{"Compound": "Nc1nc(SCCc2ccc(S(=O)(=O)O)cc2)nc2c1ncn2C1OC(CO)C(O)C1O (stereo not drawn)", "target": "adenosine A2A receptor, human, C-terminal truncation", "setting": "concentration not given, 298 K", "how to read": "relative to: truncated over wild type", "endpoint": "ΔΔG binding", "result": "0.9 kcal/mol"}
{"Compound": "CCCC[C@H](NC(=O)[C@@H](NC(=O)[C@@H](N)Cc1ccc(O)cc1)C(C)C)C(=O)NCC(=O)N[C@@H](Cc1c[nH]cn1)C(=O)N[C@@H](Cc1ccccc1)C(=O)N[C@@H](CCCNC(=N)N)C(=O)N[C@@H](Cc1c[nH]c2ccccc12)C(=O)N[C@@H](CC(=O)O)C(=O)N[C@@H](CCCNC(=N)N)C(=O)N[C@@H](Cc1ccccc1)C(=O)NCC(=O)O", "target": "MC4R (Homo sapiens, UniProt P32245)", "test": "agonist", "test system": "HEK293", "setting": "10 µM", "how to read": "relative to: MT-II", "endpoint": "cAMP accumulation", "result": "100%"}
{"Compound": "O=C(NC[C@@H](Cc1ccc(F)cc1)N1CCC(O)(C(F)(F)F)CC1)C1(c2ccc(Cl)cc2)CCCC1", "target": "TRPA1 (Homo sapiens, UniProt O75762, V875M)", "test": "calcium influx, agonist", "how to read": "relative to: V875M mutant over wild type", "endpoint": "EC50 fold change", "result": "~2 fold"}
{"Compound": "CC(C)[C@H](NC(=O)[C@@H]1CCC(=O)NCCC(=O)NCCCC[C@H](NC(=O)[C@H](CCCCN)NC(=O)[C@H](Cc2ccc(O)cc2)NC(=O)[C@H](CC(N)=O)NC(=O)[C@H](CCCCN)NC(=O)[C@@H](N)CS)C(=O)N[C@@H]([C@@H](C)O)C(=O)N1)C(=O)O", "target": "Disks large homolog 4 (Homo sapiens, UniProt P78352)", "test": "binding, SPR", "setting": "pH 7.5", "endpoint": "kon", "result": "76000 M⁻¹ s⁻¹"}
{"Compound": "COC(=O)c1cnc(-c2cnccn2)cc1C(=O)OC.COC(=O)c1cnc(-c2cnccn2)cc1C(=O)OC.[Cl-].[Cl-].[Cl-].[Cl-].[Cu+2].[Cu+2]", "target": "ALB", "test": "fluorescence quenching", "endpoint": "quenching rate constant", "result": "8.74e+13 M⁻¹ s⁻¹"}
{"Compound": "[11CH3]Nc1ccc(-c2nc3ccc(O)cc3o2)cn1", "target": "APP (Homo sapiens, UniProt P05067)", "test": "binding, PET, reference Logan", "test system": "Alzheimer's disease patients, lateral temporal cortex", "how to read": "relative to: cerebellum", "endpoint": "distribution volume ratio", "result": "1.63 ± 0.14"}
{"Compound": "CC(C)[C@H](NC(=O)[C@H](CCCNC(=N)N)NC(=O)[C@@H](NC(=O)[C@H](CCC(N)=O)NC(=O)[C@H](CCC(N)=O)NC(=O)[C@@H](NC(=O)[C@H](Cc1c[nH]c2ccccc12)NC(=O)[C@@H]1CCCN1C(=O)[C@@H]1CCCN1C(=O)[C@H](Cc1ccc(N)cc1)NC(=O)[C@H](CO)NC(=O)CNC(=O)[C@H](CCCNC(=N)N)NC(=O)[C@H](CCCNC(=N)N)NC(=O)[C@H](CCCNC(=N)N)NC(=O)[C@H](CCCNC(=N)N)NC(=O)[C@H](CCCNC(=N)N)NC(=O)[C@@H](N)CCCNC(=N)N)C(C)C)[C@@H](C)O)C(=O)O", "target": "Disks large homolog 4, PDZ3 domain (Homo sapiens, UniProt P78352)", "test": "binding, surface plasmon resonance", "setting": "pH 7.5, 25 °C", "endpoint": "kon", "result": "153000 M⁻¹ s⁻¹"}
{"Compound": "CCCCCCCCCCCCCCCC(=O)Nc1ccccc1SSc1ccccc1NC(=O)CCCCCCCCCCCCCCC", "target": "ALB", "test": "binding, fluorescence quenching", "setting": "313 K", "endpoint": "Gibbs free energy change", "result": "-2.89 kcal/mol"}
{"Compound": "CC(=O)[O-].O.O.O.O.[Mn+2].[O-]c1ccc(Br)cc1C=NCCN1CCOCC1", "target": "ALB", "test": "binding, UV absorption titration, item: BSA band at 278 nm", "setting": "pH 7.2, 25 °C", "how to read": "relative to: free BSA", "endpoint": "absorption band blue shift", "result": "7 nm"}
{"note": "Excerpt of the above:"}
{"Compound": "COC(=O)c1cnc(-c2cnccn2)cc1C(=O)OC.COC(=O)c1cnc(-c2cnccn2)cc1C(=O)OC.[Cl-].[Cl-].[Cl-].[Cl-].[Cu+2].[Cu+2]", "target": "ALB", "test": "fluorescence quenching", "endpoint": "quenching rate constant", "result": "8.74e+13 M⁻¹ s⁻¹"}
